Published values of several laboratories.
± gives the spread as reported.
Cell line: MOLT-4

Structure (SMILES) = O=C1Nc2ccccc2/C1=N\Nc1nnc2n1N=C(c1ccc(Cl)cc1)CS2; assay = cell growth or viability, SRB; setting = 10 µM; quantity = inhibition; result = 17%
Structure (SMILES) = CCCCCCCCC=CCCCCCCCC(=O)OCC1OC(n2ccc(N)nc2=O)C(F)(F)C1O (centres unmarked); assay = cell growth; setting = together with: dipyridamole 4 µg/mL; quantity = IC50; result = 21 ± 2 nM
Structure (SMILES) = CC(C)N(CCOCCOCCOCCNc1cccc2c1C(=O)N(C1CCC(=O)NC1=O)C2=O)CC[C@H](CSc1ccccc1)Nc1ccc(S(=O)(=O)NC(=O)c2ccc(N3CCN(CC4=C(c5ccc(Cl)cc5)CCC(C)(C)C4)CC3)cc2)cc1S(=O)(=O)C(F)(F)F (some centres unmarked); assay = cell growth or viability, MTS; setting = 48 h; quantity = IC50; result = 59.4 nM
Structure (SMILES) = CC(=O)OCC1(O)C(Nc2cccc(C(C)=O)c2)C(N)C(NC(=O)N(C)C)(C(C)OC(C)=O)C1(C)O (centres unmarked); assay = cell growth or viability, SRB; quantity = GI50; result = 330 nM
Structure (SMILES) = CC(=O)OC[C@H]1O[C@@H](Sc2sc(C(=O)c3ccc(Br)cc3)c(N)c2-c2nc3ccccc3s2)[C@H](OC(C)=O)[C@@H](OC(C)=O)[C@H]1OC(C)=O; assay = SRB; setting = 10 µM, 48 h; quantity = growth; result = 79.3%
Structure (SMILES) = CC(Cc1ccc(Cl)cc1)=C(c1ccc(Cl)cc1)c1ccc(OCCN(C)C)cc1; assay = cell growth or viability; quantity = GI50; result = 4010 nM
Structure (SMILES) = CC/C=C\C/C=C\C/C=C\C/C=C\C/C=C\C/C=C\CCC(=O)Nc1ccn(C2OC(CO)C(O)C2(F)F)c(=O)n1 (centres unmarked); assay = cell growth or viability, SRB; quantity = GI50; result = 69.2 nM
Structure (SMILES) = COc1ccc(C2=Nn3c(NN=C4C(=O)N(C)c5ccc(Br)cc54)nnc3SC2)cc1; assay = cell growth or viability, SRB; setting = 10 µM; quantity = inhibition; result = 18%
Structure (SMILES) = CC(=O)OC[C@H]1O[C@@H](Sc2sc(C(=O)c3ccc(C)cc3)c(N)c2-c2nc3ccccc3s2)[C@H](OC(C)=O)[C@@H](OC(C)=O)[C@H]1OC(C)=O; assay = SRB; setting = 10 µM, 48 h; quantity = growth; result = 70%
Structure (SMILES) = CCC(=C(c1ccc(Cl)cc1)c1ccc(OCCCN(C)C)cc1)c1ccc(OC)cc1; assay = cell growth or viability; quantity = GI50; result = 1050 nM
Structure (SMILES) = Cc1sc2c(c1C)C(c1ccc(Cl)cc1)=N[C@@H](CC(=O)NCC(=O)N1CCC3(CCC(C(=O)N4CCN(C(=O)c5cc(Cc6n[nH]c(=O)c7ccccc67)ccc5F)CC4)CC3)CC1)c1nnc(C)n1-2; assay = cell growth or viability, ATP luminescence; setting = 72 h; quantity = EC50; result = 4.6 nM
